Assay results collected from several papers.
Compare with care: the assays were run in different laboratories. Numbers after ± are the reported error.

SMILES = [11CH3]n1c(=O)n(CCCO)c(=O)c2c1nc(Oc1cccc(OC(F)(F)F)c1)n2Cc1ccc(Cl)cc1; test = PET; system = cynomolgus monkey, male, brain; scale = relative to: 8 min over 120 min; endpoint = brain SUV ratio; value = 2.75 fold
SMILES = CCCC[C@@H]1NC(=O)[C@H](Cc2ccc(O)cc2)NC(=O)[C@@H]2CCCN2C(=O)[C@H](CC(=O)O)NC(=O)[C@H](C)NC(=O)[C@H](Cc2ccccc2)NC(=O)[C@@H]2CSCCC(=O)N3CN(CN(C3)C(=O)CCSC[C@@H](C(=O)N[C@@H](C)C(N)=O)NC1=O)C(=O)CCSC[C@H](NC(C)=O)C(=O)N[C@@H](CC(C)(C)C)C(=O)N1CCC[C@H]1C(=O)N[C@@H](CCC(=O)O)C(=O)N[C@H](CCCCNC(=O)CCc1cn(CCOCCOCCOCCN(CCOCCOCCOCCC(=O)N[C@H]3CSCCC(=O)N4CN5CN(C4)C(=O)CCSC[C@H](NC(=O)[C@@H](CC(=O)O)NC(=O)[C@H](Cc4cccc6ccccc46)NC(=O)[C@@H]4CCCN4C3=O)C(=O)N[C@@H](CCSC)C(=O)N[C@@H](CCCCNC(=N)N)C(=O)N[C@@H](CC(=O)O)C(=O)N[C@@H](Cc3c[nH]c4ccccc34)C(=O)N[C@@H](CO)C(=O)N[C@@H]([C@@H](C)O)C(=O)N3CCC[C@H]3C(=O)N3C[C@H](O)C[C@H]3C(=O)N[C@@H](Cc3c[nH]c4ccccc34)C(=O)N[C@H](C(N)=O)CSCCC5=O)CCOCCOCCOCCn3cc(CCC(=O)NCCCC[C@H]4NC(=O)[C@H](CCC(=O)O)NC(=O)[C@@H]5CCCN5C(=O)[C@H](CC(C)(C)C)NC(=O)[C@@H](NC(C)=O)CSCCC(=O)N5CN6CN(C5)C(=O)CCSC[C@H](NC(=O)[C@H](Cc5ccc(O)cc5)NC(=O)[C@@H]5CCCN5C4=O)C(=O)N[C@@H](Cc4ccccc4)C(=O)N[C@@H](C)C(=O)N[C@@H](CC(=O)O)C(=O)N4CCC[C@H]4C(=O)N[C@@H](Cc4ccc(O)cc4)C(=O)N[C@@H](CCCC)C(=O)N[C@H](C(=O)N[C@@H](C)C(N)=O)CSCCC6=O)nn3)nn1)C(=O)N1CCC[C@H]1C(=O)N[C@@H](Cc1ccc(O)cc1)C(=O)N2; system = cynomolgus monkey, plasma; conditions = intravenous, 1 mg/kg, infusion; endpoint = half-life; value = 5.3 h
SMILES = CC(C)C[C@H](NC(=O)[C@H](Cc1ccc(O)cc1)NC(=O)[C@H](C)NC(=O)[C@H](CC(N)=O)NC(=O)[C@H](CC(C)C)NC(=O)[C@H](C)NC(=O)[C@@H](NC(=O)[C@H](CCCCN)NC(=O)CNC(=O)[C@@H](NC(=O)[C@H](CCCCN)NC(=O)[C@H](CCCCN)NC(=O)CNC(=O)[C@@H](NC(=O)[C@H](Cc1c[nH]cn1)NC(=O)[C@@H](NC(=O)[C@H](C)NC(=O)[C@H](CCCCN)NC(=O)[C@H](CCCCN)NC(=O)[C@H](Cc1ccccc1)NC(=O)[C@H](Cc1c[nH]c2ccccc12)NC(=O)[C@H](CCCCN)NC(=O)[C@H](CCCCN)NC(=O)[C@H](CC(C)C)NC(=O)CN)C(C)C)C(C)C)C(C)C)C(C)C)C(N)=O; system = zebrafish embryos; conditions = 1 h, 4, 28, 52 hpf; endpoint = acute toxic concentration; value = 5 µg/mL
SMILES = CC(C)C[C@@H](N)C(=O)NCC(=O)N[C@H](C)C(=O)N[C@H](CO)C(=O)N[C@H](Cc1c[nH]c2ccccc12)C(=O)N[C@H](Cc1c[nH]cn1)C(=O)N[C@H](CCCNC(=N)N)C(=O)N1CCC[C@@H]1C(=O)N[C@H](CC(=O)O)C(=O)N[C@H](CCCCN)C(=O)N[C@H](CS)C(=O)N[C@H](CS)C(=O)N[C@H](CC(C)C)C(=O)NCC(=O)N[C@H](Cc1ccc(O)cc1)C(=O)N[C@H](CCC(N)=O)C(=O)N[C@H](CCCCN)C(=O)N[C@H](CCCNC(=N)N)C(=O)N1CCC[C@@H]1C(=O)N[C@H](CC(C)C)C(=O)N1CCC[C@@H]1C(N)=O; test = LC-MS/MS; system = rat plasma; conditions = 25 ng/mL, 12 h, 25 °C, room temperature before extraction; endpoint = measured concentration; value = 24.4 ± 2.7 ng/mL
SMILES = CC(C)[C@H](NC(=O)CNC(=O)[C@H](CCC(N)=O)NC(=O)[C@H](C)N)C(=O)O; system = human; conditions = single dose, 30 mg/kg; endpoint = probably related adverse events; value = 0%
SMILES = C[C@H]1N=C(c2ccccc2F)c2cc(Br)ccc2-n2cnc(C(=O)OC3O[C@H](C(=O)O)[C@@H](O)[C@H](O)[C@H]3O)c21 (stereo partly shown); test = LC-MS/MS; system = Swiss Webster mouse, female, urine; conditions = oral, 750 µg parent drug, 24 to 48 h; endpoint = cumulative excretion; value = 0.6 ± 0.3%
SMILES = N=C(N)NCCC[C@@H]1NC(=O)[C@H](CCCNC(=N)N)NC(=O)[C@H](CCCNC(=N)N)NC(=O)[C@H](CCCNC(=N)N)NC(=O)[C@H](Cc2c[nH]c3ccccc23)NC(=O)[C@H](CCCNC(=N)N)NC(=O)[C@H](CCCNC(=N)N)NC(=O)[C@@H](N)CCCn2cc(nn2)C[C@@H](C(N)=O)NC1=O; system = zebrafish embryos; conditions = 50 µg/mL, 72 h; endpoint = hatching rate; value = 55%
SMILES = O=C(CN1CCN(c2cc3c(cc2F)c(=O)c(C(=O)O)cn3C2CC2)CC1)Nc1ccc(Cl)cc1; system = BALB/c mice female; conditions = intravenous, 3.75 mg/kg; endpoint = Vss; value = 2.33 mL
SMILES = N#CC1(c2ccc3c(N)ncnn23)OC(COP(=O)(O)OP(=O)(O)OP(=O)(O)O)C(O)C1O (stereo not shown); test = LC-MS/MS; system = male CD-1 mice, lung; conditions = oral, 100 mg/kg of remdesivir; endpoint = last detectable time; value = ≤ 4 h
SMILES = CC[C@H](C)C(=O)N1CCC(NC(=O)Nc2ccc(OC(F)(F)F)c(F)c2)CC1; system = healthy volunteers; conditions = oral, 8 mg single dose; endpoint = subjects with insomnia TEAE; value = 0%

Repeated from above:
SMILES = CCCC[C@@H]1NC(=O)[C@H](Cc2ccc(O)cc2)NC(=O)[C@@H]2CCCN2C(=O)[C@H](CC(=O)O)NC(=O)[C@H](C)NC(=O)[C@H](Cc2ccccc2)NC(=O)[C@@H]2CSCCC(=O)N3CN(CN(C3)C(=O)CCSC[C@@H](C(=O)N[C@@H](C)C(N)=O)NC1=O)C(=O)CCSC[C@H](NC(C)=O)C(=O)N[C@@H](CC(C)(C)C)C(=O)N1CCC[C@H]1C(=O)N[C@@H](CCC(=O)O)C(=O)N[C@H](CCCCNC(=O)CCc1cn(CCOCCOCCOCCN(CCOCCOCCOCCC(=O)N[C@H]3CSCCC(=O)N4CN5CN(C4)C(=O)CCSC[C@H](NC(=O)[C@@H](CC(=O)O)NC(=O)[C@H](Cc4cccc6ccccc46)NC(=O)[C@@H]4CCCN4C3=O)C(=O)N[C@@H](CCSC)C(=O)N[C@@H](CCCCNC(=N)N)C(=O)N[C@@H](CC(=O)O)C(=O)N[C@@H](Cc3c[nH]c4ccccc34)C(=O)N[C@@H](CO)C(=O)N[C@@H]([C@@H](C)O)C(=O)N3CCC[C@H]3C(=O)N3C[C@H](O)C[C@H]3C(=O)N[C@@H](Cc3c[nH]c4ccccc34)C(=O)N[C@H](C(N)=O)CSCCC5=O)CCOCCOCCOCCn3cc(CCC(=O)NCCCC[C@H]4NC(=O)[C@H](CCC(=O)O)NC(=O)[C@@H]5CCCN5C(=O)[C@H](CC(C)(C)C)NC(=O)[C@@H](NC(C)=O)CSCCC(=O)N5CN6CN(C5)C(=O)CCSC[C@H](NC(=O)[C@H](Cc5ccc(O)cc5)NC(=O)[C@@H]5CCCN5C4=O)C(=O)N[C@@H](Cc4ccccc4)C(=O)N[C@@H](C)C(=O)N[C@@H](CC(=O)O)C(=O)N4CCC[C@H]4C(=O)N[C@@H](Cc4ccc(O)cc4)C(=O)N[C@@H](CCCC)C(=O)N[C@H](C(=O)N[C@@H](C)C(N)=O)CSCCC6=O)nn3)nn1)C(=O)N1CCC[C@H]1C(=O)N[C@@H](Cc1ccc(O)cc1)C(=O)N2; system = cynomolgus monkey, plasma; conditions = intravenous, 1 mg/kg, infusion; endpoint = half-life; value = 5.3 h
